Measured values from different studies.
Numbered parts are unrelated; each lists some results of a single study.

Sample 1
Target: RNA binding protein fox-1 homolog 2, RRM domain, GST-SBP tag (RBFOX2, Homo sapiens, UniProt O43251-10, residues 100-194)
Technique: RNA Bind-n-Seq
Form: RNA
Matrix: in vitro
Concentration: 365 nM
Notes: natural RNA segment, single round, ends assumed
Baseline: no-protein control
Direction: higher = stronger binding
Residues (chain): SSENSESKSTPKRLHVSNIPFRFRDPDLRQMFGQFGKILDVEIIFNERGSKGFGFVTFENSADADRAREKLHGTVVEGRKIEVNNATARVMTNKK
Sequence | RBNS enrichment (R)
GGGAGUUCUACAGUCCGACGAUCAAAGAUAUAAGAAUAAUUUUUUAGUCCUAAAUGCUGUUUUGUUUACUUUCUGUCAAGAUAUUUACCCGUGUCAAAUUCAAACUACAGUACUGUGUAAUUAUGUAUAAAGUUGGAAUUCUCGGGUGCCAA | 0.642
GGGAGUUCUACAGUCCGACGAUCUAGUGCAAAAAGAAUUUCUUAAGGUUUAAAAAAUACACUUUUCAUUAUAGGAAAAAGAAGAUUCAGAGAAACAAAGGAAUGUAACCUUAUUGAUUACAUUUUUGGUGAUCUGGAAUUCUCGGGUGCCAA | 0.756
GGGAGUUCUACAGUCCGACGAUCUGUGGACCCAGUCUAGGCACCCCAGUACUUCCCUUCACCUUGUAGAAAAUGGUAAUGAAAGGGCAUGCCCAGGCUCUUUAGCAGCCCAGGGAAACAGAGAAGUCUCCCUUUGGAAUUCUCGGGUGCCAA | 0.265
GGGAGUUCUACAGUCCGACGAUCUGGUGGGGGCAGAUCCUGCACACACAGACACAGCGUCUGCCCCCGAGCCAUUCCCUGGAGACCCUGGGUCUACCCCAGGUGGUCGUCAUCUGGGCCAUUUGCCUUACUUCUGGAAUUCUCGGGUGCCAA | 0.229
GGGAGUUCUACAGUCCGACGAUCUCUCCUGUAAGAGUAUUAAUGUUGGGGCCCAAGGGCUCGAGGAAGGCAGCCUCGCUCACAGCCAGGCACGUAGCUUGCUUCUGAGAUGUGGCAGGCCCUGUCCCAAGGCCUGGAAUUCUCGGGUGCCAA | 0.635
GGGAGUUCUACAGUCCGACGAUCCGGCUCUCAGAAGCAUUCACACGCACAGAUGUGCAACCUCAGCCAGAAGUUGAAGCUCUUUAAGCCAUUUUAUUUAUUUUGUUUUUUACAGAAUUUGUGCUUUGGUUUGCUGGAAUUCUCGGGUGCCAA | 0.353
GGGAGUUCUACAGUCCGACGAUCGGACGCAGGGAGUCUGGCUAGCGUUAAUAGGAAAGGUUGCUCGGCAGAGCUGCCCUGGAGUACUGACUUGUCUCUCCCUCCUUUGUCAAGGUCCAUGUUUUUCUGGCUCUUGGAAUUCUCGGGUGCCAA | 0.28
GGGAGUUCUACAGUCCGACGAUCAUCGAGUAUUCUUUAUAUUCAGUUCCUAUUUAAGUCAUUUUUGUCAUGUCCGCCUAAUUGAUGUAGUAUGAAACCCUGCAUCUUUAAGGAAAAGAUUAAAAUAGUAAAAUUGGAAUUCUCGGGUGCCAA | 1.27
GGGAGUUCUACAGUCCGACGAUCACAACAGGAUUCACAUUGUUAAUUUAUAAAUCUAGACUUGGAGAAUUAAGGACUGAGAAAUGACCAUAUCUUAAACUAUCUACGACAAAGUGAACUUAAAAGGACAUGCCUGGAAUUCUCGGGUGCCAA | 1.01
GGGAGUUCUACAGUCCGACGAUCUUAAGAAUCUAGGUCCGCCCUCAAGCCCAUACUGACCAUGCCUCAUCCAGAGCUCCUCUGAAGCCAGGGGGCUAACGGAUGUUGUGUGGAGUCCUGGCUGGAGGUCCUCCUGGAAUUCUCGGGUGCCAA | 0.207
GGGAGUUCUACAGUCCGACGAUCUUUUGGUAUGAUAAAGACCCCAAAAUGCCUUUUUUUUAAAGUGGGGAGAGGGAGGAGGUACGCCGGGAGCCUCUUUAACCUCCAUAGGCUGUGUUUGCUCCCAAAUCUGCUGGAAUUCUCGGGUGCCAA | 1.1
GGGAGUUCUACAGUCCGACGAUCAAGUUGCGGUUUACAGCACCUGCUUAUAACAGGAAGGGGCUGUAGAGGGGCUCGGUGACCAAGGUAAACCACACGCGCAAACCGAGGCAGUCAUCUACAAAUAACCCAUCUGGAAUUCUCGGGUGCCAA | 0.392

Sample 2
Target: PABPC1L2, full length, GST fusion (mouse, UniProt A0ABA7IW68)
Technique: RNAcompete
Form: RNA
Matrix: in vitro
Concentration: 20 nM
Notes: 7-mer, probes averaged, single round
Baseline: mean of 7-mers
Direction: higher = stronger binding
Construct (chain): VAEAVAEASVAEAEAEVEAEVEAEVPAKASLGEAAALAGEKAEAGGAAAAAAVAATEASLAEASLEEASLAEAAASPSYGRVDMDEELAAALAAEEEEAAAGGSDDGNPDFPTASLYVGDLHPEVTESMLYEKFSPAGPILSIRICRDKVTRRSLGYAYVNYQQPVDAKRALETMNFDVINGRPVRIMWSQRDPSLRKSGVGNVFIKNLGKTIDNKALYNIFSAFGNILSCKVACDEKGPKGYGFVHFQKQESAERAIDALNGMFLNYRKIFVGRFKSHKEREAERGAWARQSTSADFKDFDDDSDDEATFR
Sequence | 7-mer Z-score
CGCCAUU | -0.271
CCACGUU | -0.237
CCUAAAA | 3.52
GAGAUUU | -0.0591
GGGCUCA | 0.488
CUCGUAU | -0.311
UCAGGUA | -0.0554
UGAUGCU | -0.15
UGUUAGC | -0.306
ACUACCC | -0.365
AUGAUCC | -0.106
UGGACGC | 0.0189
CCUAUAC | -0.28
UCGAUGU | -0.171
CUAAUGC | -0.36
AAUUCGC | 0.158
CGAUGCA | 0.0732
GACGCAA | 0.0352
UGGCUCU | -0.0808

Sample 3
Target: Prothrombin, mature alpha-thrombin (F2, Homo sapiens, UniProt P00734)
Technique: aptamer microarray, sandwich
Form: DNA with 2'F-ANA
Matrix: in vitro
Concentration: 200 nM
Notes: whole 15-mer aptamer, many near background
Added: Cy3 exosite-II aptamer, 400 nM
Direction: higher = stronger binding
Sequence: GGTTGGTGTGGTTGG
Modification | mean fluorescence intensity [a.u.]
2'F-ANA at 1 2 3 7 9 11 12 15 | 313
2'F-ANA at 1 3 5 6 7 9 11 13 14 | 48.6
2'F-ANA at 3 4 5 6 10 12 14 15 | 48.5
2'F-ANA at 2 4 5 9 10 11 12 | 49.5
2'F-ANA at 1 3 5 7 9 10 | 50.3
2'F-ANA at 7 8 11 12 | 845
2'F-ANA at 1 2 3 4 5 6 8 9 12 13 15 | 70.6
2'F-ANA at 4 9 12 13 15 | 337
2'F-ANA at 5 7 11 12 13 15 | 94
2'F-ANA at 6 9 11 | 424
2'F-ANA at 2 4 7 12 13 14 | 146
2'F-ANA at 2 3 5 6 8 9 10 12 13 14 15 | 51.4
2'F-ANA at 1 3 7 8 9 10 11 12 | 112
2'F-ANA at 3 5 9 14 15 | 56
2'F-ANA at 1 3 4 6 7 8 10 12 13 14 15 | 92.6
2'F-ANA at 1 2 5 6 8 10 13 15 | 50.3
2'F-ANA at 1 2 3 4 5 6 7 8 9 10 14 15 | 46
2'F-ANA at 2 3 5 8 13 14 15 | 58.7
2'F-ANA at 2 9 10 11 12 13 15 | 144

Sample 4
Target: Histone acetyltransferase KAT6A, winged helix 2, GST fusion (KAT6A, Homo sapiens, UniProt Q92794, residues 85-181)
Technique: protein binding microarray
Form: double-stranded DNA, one strand shown
Matrix: in vitro
Concentration: not given
Notes: 8-mer, flanks averaged, mean of 2 arrays, mostly near background
Baseline: not given
Direction: higher = stronger binding
Target sequence (chain): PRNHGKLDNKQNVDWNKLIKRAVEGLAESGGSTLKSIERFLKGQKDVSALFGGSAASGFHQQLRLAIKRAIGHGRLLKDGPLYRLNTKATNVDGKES
Sequence | E-score
AGGGATAG | -0.171
CTCGTAGA | -0.241
ACAGGGCC | 0.054
AACACTTA | -0.25
GACTCCAA | -0.165
ATTGTCTA | 0.0188
CCACTTTC | -0.118
ATTAAAGG | 0.14
AGCACGTG | -0.0137
GCGTCTTA | -0.0789
CACACGTA | -0.322
ACCCGTAA | -0.165
CAAAAAGG | 0.054
ATGTGTGG | -0.0289
ATAGGACG | -0.247
CCAACGGG | 0.125
CCGAAGGC | 0.231
AGTGGATA | -0.0342
ATGCCGTC | 0.162
TCATGCAA | 0.0276
AAGGCGAC | -0.0589

Sample 5
Target: RING finger protein unkempt homolog, zinc fingers 1-6, GST-SBP tag (UNK, Homo sapiens, UniProt Q9C0B0, residues 30-357)
Sequence of UniProt Q9C0B0 (30-357, looked up): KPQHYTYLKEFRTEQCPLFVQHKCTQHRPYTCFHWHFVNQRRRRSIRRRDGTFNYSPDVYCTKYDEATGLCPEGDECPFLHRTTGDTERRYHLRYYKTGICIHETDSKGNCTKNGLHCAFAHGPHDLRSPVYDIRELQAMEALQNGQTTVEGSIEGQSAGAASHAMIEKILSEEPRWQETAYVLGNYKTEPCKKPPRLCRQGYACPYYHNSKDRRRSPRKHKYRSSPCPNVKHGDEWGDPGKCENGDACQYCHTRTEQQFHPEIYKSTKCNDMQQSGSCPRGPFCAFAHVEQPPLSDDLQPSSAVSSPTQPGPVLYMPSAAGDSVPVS
Technique: RNA Bind-n-Seq
Form: RNA
Matrix: in vitro
Concentration: not given
Notes: RNA with constant flanks, human and mouse sites, ends assumed
Baseline: input RNA pool
Direction: higher = stronger binding
Sequence | bound/input enrichment [ratio]
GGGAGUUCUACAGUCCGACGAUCCUUCCCCUUAAAUAAUUGUGUUCAUUUUUGUUUUGUUUCCUUGUGUACUCCAGCAUUGGUUAUAGUCAUGGGAAAGGAAGGUGUCCACGCAGGCACAAUUAACAAGAAAACAUAUGAACUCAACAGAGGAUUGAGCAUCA | 0.283
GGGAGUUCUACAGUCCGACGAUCUUUUUGGGGAUUGCUUACAUCGCUGUUGGAUCCAUCUCCUUCCUUCUGGGAGUUGUACUGCUAGUAAUUAAUCAUAAAUAUAGAAACAGUAGUAAUACAGCUGACAUUACCAUUUAAUUUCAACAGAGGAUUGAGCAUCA | 5.11
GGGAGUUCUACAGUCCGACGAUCGAGUCCAGCAAGGCCAGAAUGGAGUCUAUGAAUCGGCCCUACACUUCACUUGUGCCCCCUUUAUCCCCGCAACCUAAGAUAGUCACCCCCUACACUGCUUCACAGCCUUCACCACCUCUACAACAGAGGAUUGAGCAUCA | 0.684
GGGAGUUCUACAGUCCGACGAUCGGUCCACAUACUCCCCAUCGGGUGCCUGGACCUUGGGGUUCCCCCGAACCUUUUCUGCUCUAUAGGCCAGCUCCACCAUCCUAUGGGAGGGGAGGGGAGGUCCGAGGAUCCUUGUACAGACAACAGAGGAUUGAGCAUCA | 0.107
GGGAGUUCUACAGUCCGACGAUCUUGUCGAAGACUCAACGAAAGACUCCAACCGUUAUUCAUAAACAUUACCAAAUACAUCGCAUUAGACAUUUUUACAUGAGAAAAGUCAAAUUUACUCAACAGAAUUACCAUGAUAGACUUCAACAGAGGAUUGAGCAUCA | 68.5
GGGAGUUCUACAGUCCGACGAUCCAAAUGCGCUCUUUCAAACCAUUCAUUAUCCUGUGUAUUUUUAAUGUGGUUUUAGUAAAUGUUGGUAGUAGCUCUGUUGAAGUAGGUAAUUGUGUUAUGUUUUGGGUGGUACACACUUGGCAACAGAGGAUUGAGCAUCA | 4.49
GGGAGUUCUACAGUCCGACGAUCACAGGAAAGAAGGCAUAUAAAUGUAAUAAAUGUGGAAAAGCCUUCAGCCAGAAGGAAAACUUCCUUUCUCAUCAGAAACAUCACACUGGAGAGAAACCUUAUGAAUGUGAAAAAGUUUCUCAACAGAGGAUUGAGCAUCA | 0.112
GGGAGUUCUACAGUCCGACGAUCUGAAUUAAUUAUUAAUAUUUAAAAUACUUCAUUCCUUAACUCUCCCUCAUUUGCUUUGCCCACAGCCUAUUCAGUUCCUUUGUUUGGCAGGAUUCUGCAAAAUGUGUCUCACCCACUACUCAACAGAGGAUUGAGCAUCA | 2.13
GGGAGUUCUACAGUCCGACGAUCCUGUGUUAUAUGUCAUAUUUAGCGUUUUUAUAUAUGACCUUUGAUUUCUGUUGUUUGUAUUUUAGCACAGUGUAUGCACCUUCAUUUAAAUACAUCUGUGUGCAUACAGAUACGCAUAUACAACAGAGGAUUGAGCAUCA | 2.59
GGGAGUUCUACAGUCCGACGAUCUGAAGAUGAUGUAAAUAAGCAAAGUUCAGUUAGAAAGAACUCACAAAAACAAAUAAAAAAUAGCAGUCUCCUUUCUUUUGACAGUGAAGAUGAAAAUGAGUAAAUAUGAAUAUUGUGGACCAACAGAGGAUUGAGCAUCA | 1.28
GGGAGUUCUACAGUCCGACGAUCACUGCAGAUCAGAUCAGUUCUCUUUGUGGAUUAUAUUUUCAGUAAAAUGUAUGGAUCUAUCUUUUCCUUGUUCUUAUAUCUAGAUCAUGAGACUUGACUGAGGCUGUAUCCUUAUCCUCCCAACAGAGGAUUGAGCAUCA | 0.193

A few entries again (sample 4):
Sequence | E-score
AGCACGTG | -0.0137
GCGTCTTA | -0.0789
CACACGTA | -0.322
ACCCGTAA | -0.165
CAAAAAGG | 0.054
ATGTGTGG | -0.0289
ATAGGACG | -0.247
CCAACGGG | 0.125
CCGAAGGC | 0.231
AGTGGATA | -0.0342
ATGCCGTC | 0.162
TCATGCAA | 0.0276
